Experimental data from different studies.
Lines come from different studies, so protocols differ.
MTNR1B: Melatonin receptor type 1B (MTNR1B, Homo sapiens, UniProt P49286)
Sequence of UniProt P49286 (whole entry, looked up): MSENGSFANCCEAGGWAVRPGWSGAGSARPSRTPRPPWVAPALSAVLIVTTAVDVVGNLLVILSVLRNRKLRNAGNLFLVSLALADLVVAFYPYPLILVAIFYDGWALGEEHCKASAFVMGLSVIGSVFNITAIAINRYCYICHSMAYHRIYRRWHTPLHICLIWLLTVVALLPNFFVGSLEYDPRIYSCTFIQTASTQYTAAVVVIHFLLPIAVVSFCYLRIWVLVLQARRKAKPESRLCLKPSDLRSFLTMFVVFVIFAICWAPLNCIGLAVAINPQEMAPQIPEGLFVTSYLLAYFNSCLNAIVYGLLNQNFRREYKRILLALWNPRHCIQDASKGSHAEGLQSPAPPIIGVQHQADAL
Sequence of UniProt Q12852 (whole entry, looked up): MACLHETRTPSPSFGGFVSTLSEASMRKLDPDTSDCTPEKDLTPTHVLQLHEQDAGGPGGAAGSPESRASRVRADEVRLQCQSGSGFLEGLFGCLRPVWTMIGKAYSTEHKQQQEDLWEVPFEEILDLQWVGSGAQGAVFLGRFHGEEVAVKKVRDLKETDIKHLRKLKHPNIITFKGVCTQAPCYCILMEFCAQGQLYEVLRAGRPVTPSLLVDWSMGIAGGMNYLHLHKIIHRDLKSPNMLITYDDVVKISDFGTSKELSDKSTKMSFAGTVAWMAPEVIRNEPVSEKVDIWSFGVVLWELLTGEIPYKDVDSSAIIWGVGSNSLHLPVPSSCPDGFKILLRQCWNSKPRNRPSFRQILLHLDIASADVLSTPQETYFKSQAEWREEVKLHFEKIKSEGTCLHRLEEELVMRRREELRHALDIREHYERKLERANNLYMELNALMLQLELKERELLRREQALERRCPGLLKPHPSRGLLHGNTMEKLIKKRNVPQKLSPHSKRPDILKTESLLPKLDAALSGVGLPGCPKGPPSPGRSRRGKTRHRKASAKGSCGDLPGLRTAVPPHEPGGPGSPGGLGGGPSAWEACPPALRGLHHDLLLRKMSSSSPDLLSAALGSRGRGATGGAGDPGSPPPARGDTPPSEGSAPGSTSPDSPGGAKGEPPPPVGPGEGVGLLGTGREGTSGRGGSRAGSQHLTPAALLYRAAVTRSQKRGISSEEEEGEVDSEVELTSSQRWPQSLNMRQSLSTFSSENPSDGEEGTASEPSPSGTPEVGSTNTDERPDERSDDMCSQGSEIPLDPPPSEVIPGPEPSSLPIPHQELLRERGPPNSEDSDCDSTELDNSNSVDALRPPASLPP
Sequence of UniProt Q9NYV4 (whole entry, looked up): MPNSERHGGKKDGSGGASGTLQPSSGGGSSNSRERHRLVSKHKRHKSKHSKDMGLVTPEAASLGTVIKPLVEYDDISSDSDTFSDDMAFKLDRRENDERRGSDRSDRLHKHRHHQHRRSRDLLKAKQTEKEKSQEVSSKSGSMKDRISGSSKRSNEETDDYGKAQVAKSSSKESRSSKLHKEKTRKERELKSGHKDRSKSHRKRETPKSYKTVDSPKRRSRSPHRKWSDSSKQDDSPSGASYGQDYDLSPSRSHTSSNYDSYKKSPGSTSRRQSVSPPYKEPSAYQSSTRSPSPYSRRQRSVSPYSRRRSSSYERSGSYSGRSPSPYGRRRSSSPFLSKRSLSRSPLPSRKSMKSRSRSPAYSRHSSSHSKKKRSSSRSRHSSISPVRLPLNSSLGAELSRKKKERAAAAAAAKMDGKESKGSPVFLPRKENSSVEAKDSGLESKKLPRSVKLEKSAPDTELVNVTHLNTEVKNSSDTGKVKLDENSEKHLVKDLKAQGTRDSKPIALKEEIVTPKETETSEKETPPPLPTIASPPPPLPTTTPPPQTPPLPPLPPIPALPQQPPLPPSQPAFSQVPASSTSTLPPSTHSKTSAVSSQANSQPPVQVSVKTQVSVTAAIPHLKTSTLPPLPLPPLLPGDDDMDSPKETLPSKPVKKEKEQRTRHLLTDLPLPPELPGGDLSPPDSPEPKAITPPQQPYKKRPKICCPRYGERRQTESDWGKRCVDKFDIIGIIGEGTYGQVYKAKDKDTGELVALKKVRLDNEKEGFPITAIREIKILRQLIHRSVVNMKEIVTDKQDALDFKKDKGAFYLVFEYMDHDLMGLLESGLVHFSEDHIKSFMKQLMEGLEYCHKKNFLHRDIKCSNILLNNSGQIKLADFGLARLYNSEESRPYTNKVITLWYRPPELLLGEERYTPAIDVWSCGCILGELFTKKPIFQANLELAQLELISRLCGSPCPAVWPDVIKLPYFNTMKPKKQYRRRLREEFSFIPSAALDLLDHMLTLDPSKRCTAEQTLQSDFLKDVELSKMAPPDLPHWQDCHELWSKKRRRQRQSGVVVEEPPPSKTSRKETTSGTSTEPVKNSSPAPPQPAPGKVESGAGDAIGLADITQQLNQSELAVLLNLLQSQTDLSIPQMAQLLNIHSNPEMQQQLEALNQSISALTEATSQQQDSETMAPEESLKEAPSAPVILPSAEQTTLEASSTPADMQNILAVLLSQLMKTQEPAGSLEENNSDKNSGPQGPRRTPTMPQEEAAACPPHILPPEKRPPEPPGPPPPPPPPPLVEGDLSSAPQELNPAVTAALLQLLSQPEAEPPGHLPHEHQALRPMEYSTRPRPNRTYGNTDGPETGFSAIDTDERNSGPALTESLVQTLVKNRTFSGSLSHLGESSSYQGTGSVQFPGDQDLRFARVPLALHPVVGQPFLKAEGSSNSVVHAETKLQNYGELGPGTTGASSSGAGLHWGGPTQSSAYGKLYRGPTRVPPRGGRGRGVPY
Sequence of UniProt Q9H2K8 (whole entry, looked up): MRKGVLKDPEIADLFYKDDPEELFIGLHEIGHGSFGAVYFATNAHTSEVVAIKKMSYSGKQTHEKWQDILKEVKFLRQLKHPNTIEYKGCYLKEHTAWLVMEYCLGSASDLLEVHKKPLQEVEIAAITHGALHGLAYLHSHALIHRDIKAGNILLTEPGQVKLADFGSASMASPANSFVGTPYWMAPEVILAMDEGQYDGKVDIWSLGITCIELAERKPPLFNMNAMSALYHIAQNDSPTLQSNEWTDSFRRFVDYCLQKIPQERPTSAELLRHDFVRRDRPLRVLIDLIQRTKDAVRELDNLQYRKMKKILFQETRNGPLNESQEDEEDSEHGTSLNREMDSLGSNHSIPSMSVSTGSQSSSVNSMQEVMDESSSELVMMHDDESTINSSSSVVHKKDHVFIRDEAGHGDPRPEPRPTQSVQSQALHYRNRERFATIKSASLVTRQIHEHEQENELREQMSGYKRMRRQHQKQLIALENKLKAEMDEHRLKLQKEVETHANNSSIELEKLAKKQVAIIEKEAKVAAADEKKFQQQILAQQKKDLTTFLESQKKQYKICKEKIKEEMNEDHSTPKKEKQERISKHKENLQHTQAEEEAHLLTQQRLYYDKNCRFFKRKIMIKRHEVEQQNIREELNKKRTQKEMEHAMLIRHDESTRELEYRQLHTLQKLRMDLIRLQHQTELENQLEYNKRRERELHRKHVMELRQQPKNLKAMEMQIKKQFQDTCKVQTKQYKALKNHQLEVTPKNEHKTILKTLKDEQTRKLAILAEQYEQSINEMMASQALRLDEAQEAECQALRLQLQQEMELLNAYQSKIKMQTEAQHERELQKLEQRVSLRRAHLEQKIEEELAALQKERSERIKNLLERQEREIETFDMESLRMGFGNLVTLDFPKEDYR
Sequence of UniProt P54756 (whole entry, looked up): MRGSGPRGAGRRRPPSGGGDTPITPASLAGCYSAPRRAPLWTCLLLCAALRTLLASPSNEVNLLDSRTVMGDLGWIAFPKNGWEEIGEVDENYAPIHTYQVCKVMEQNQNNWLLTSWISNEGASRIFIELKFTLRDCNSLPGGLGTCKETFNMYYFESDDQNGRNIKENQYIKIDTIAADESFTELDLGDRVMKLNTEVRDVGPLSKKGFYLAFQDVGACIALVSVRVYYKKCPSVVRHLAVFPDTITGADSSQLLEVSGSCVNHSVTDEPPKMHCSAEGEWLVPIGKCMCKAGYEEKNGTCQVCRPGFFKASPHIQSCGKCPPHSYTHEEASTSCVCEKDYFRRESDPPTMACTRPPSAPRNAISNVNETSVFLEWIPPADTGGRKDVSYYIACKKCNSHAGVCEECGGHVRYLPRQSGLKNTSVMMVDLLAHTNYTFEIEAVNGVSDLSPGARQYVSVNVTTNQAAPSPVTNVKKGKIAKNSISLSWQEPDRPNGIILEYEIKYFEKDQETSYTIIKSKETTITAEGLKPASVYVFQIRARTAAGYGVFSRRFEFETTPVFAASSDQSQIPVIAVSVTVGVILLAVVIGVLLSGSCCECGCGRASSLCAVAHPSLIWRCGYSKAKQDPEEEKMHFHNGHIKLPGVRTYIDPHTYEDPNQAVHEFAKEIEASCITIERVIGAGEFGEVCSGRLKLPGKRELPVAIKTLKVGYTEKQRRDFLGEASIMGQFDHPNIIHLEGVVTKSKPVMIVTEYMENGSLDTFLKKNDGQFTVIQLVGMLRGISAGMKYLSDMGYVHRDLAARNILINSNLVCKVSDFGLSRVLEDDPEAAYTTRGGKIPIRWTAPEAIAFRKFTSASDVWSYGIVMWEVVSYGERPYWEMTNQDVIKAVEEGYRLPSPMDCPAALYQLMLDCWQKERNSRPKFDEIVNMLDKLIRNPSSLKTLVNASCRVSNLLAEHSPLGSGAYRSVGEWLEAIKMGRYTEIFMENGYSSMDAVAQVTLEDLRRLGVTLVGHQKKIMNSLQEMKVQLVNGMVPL

Compound = COc1ccc2ncn(CCNC(C)=O)c2c1; target = MTNR1B; assay = β-arrestin recruitment, agonist; system = MT2; setting = 90 min; quantity = Emax; value = 92%
Compound = Cc1cc([C@@H](C)Nc2ccccc2C(=O)O)c2nc(N3CCC(F)(F)CC3)c(C#N)c(=O)n2c1; target = Ribosomal protein S6 kinase alpha-3, N-terminal kinase domain (RPS6KA3, Homo sapiens, UniProt P51812); assay = binding, competition with immobilised ligand; setting = 10 µM; quantity = remaining binding; value = 90%
Compound = CCC(=O)NC1Cc2ccccc2C(c2ccccc2)C1 (stereo not drawn); target = MTNR1B; assay = β-arrestin recruitment, agonist; system = MT2; setting = 90 min; quantity = Emax; value = 68%
Compound = COc1cc(-c2cncc3c2CN(C)Cc2cc(N4CCNCC4)ccc2-3)cc(OC)c1OC; target = EPHA5 (Homo sapiens, UniProt P54756); assay = enzyme activity, inhibitor; setting = 1 µM; quantity = remaining activity; value = 107%
Compound = C=CC(=O)N1CCC(COCC(=O)N2CCN(c3nc(-c4cnc(N)nc4C(F)F)nc(N4CCOC[C@@H]4C)n3)CC2)CC1; target = MKNK1 (Homo sapiens, UniProt Q9BUB5); assay = binding, competition with immobilised ligand; setting = 1 µM; quantity = remaining binding; value = 97%
Compound = CNc1ncc2c(/C=C/C(=O)N3CCC(OC)CC3)nn(Cc3cccc(C(F)(F)F)c3)c2n1; target = Cyclin-dependent kinase 12, with cyclin K (CDK12, Homo sapiens, UniProt Q9NYV4); assay = enzyme activity, inhibitor, radiometric; setting = 1 µM; quantity = remaining activity; value = 107%
Compound = Nc1ncnc2occ(-c3ccc(NC(=O)Nc4cc(C(F)(F)F)ccc4F)cc3)c12; target = FLT3 (Homo sapiens, UniProt P36888, D835H); assay = cell-free assay, inhibitor; setting = 20 µM; quantity = remaining signal; value = 0.55%
Compound = C1=C/COCc2cc(ccc2OCCN2CCCC2)Nc2nccc(n2)-c2cccc(c2)COC/1; target = MAP3K12 (Homo sapiens, UniProt Q12852); assay = cell-free assay; setting = 0.1 µM; quantity = remaining signal; value = 22%
Compound = CCCCC(=O)Nc1ccc(-c2ccc3ncn(CCC)c(=O)c3c2)cn1; target = TAOK3 (Homo sapiens, UniProt Q9H2K8); assay = binding, competition with immobilised ligand; setting = 0.5 µM; quantity = remaining binding; value = 100%

Excerpt of the above:
Compound = CCCCC(=O)Nc1ccc(-c2ccc3ncn(CCC)c(=O)c3c2)cn1; target = TAOK3 (Homo sapiens, UniProt Q9H2K8); assay = binding, competition with immobilised ligand; setting = 0.5 µM; quantity = remaining binding; value = 100%
